Measurements gathered from unrelated publications.
Each numbered part is a random draw from the data of one study; scales do not carry over between parts. Changes are numbered by the printed parent chain.

Block 1
Target: Fragile X messenger ribonucleoprotein 1, C-terminal low-complexity region (Fmr1, Mus musculus, UniProt P35922)
Technique: RNA Bind-n-Seq
Form: RNA
Sample: in vitro
Tested at: 200 nM
Setting: whole 134-nt RNA, ends assumed
Together with: 150 mM KCl
Baseline: input library
Direction: higher = stronger binding
All sequences stand within: GGGAGUUCUACAGUCCGACGAUC … UGGAAUUCUCGGGUGUCAAGG
Sequence | log2 enrichment
UGGCCCUGGUGGCAUGCGGGGAGGAAGAGGUGGCCUCAUGGAUCGUGGUGGUCCCGGUGGAAUGUUCAGAGGUGGCCGUGGUGGAGAGAG | -0.0916
UGGGCCUGGUGGCAUGCGGGGAGGAAGAGGUGGCCUCAUGGAUCGUGGUGGUCCCGGUGGAAUGUUCAGAGGUGGCCGUGGUGGAGACAG | 0.469
CUGUGCUACACAUCGUAUGUACCGAAUCGGGGUUUUUUUGGGGUUUUUUUGGUUUUUUUGGAAAGUAUUAUGUUACGCCGUUCGGAUCUG | -0.771
CACAGACAACACGCACCCACACAGACACAAAGGGAAGGGGUUGGGAUGGGGACAGGGUGCACAGCAGGGCGGGGUAGGACCCCAGCCCCU | 1.39
UAGGAAAACCGUCUUCAGAUACAGUCCCUAAGCCCAAGAGAGCCCCAAAACAGAAGAAAGUAGUAGAGGCUGUAAACUCUGACUCGGAUU | 0.0197
AGUCCUGUGCUACACAUCGUAUGUACCGAAUCGGGGUUUGGGGAAAAAGGGGAGGGGAAAGUAUUAUGUUACGCCGUUCGGAUCUGCACU | 0.69
CUCAAGUCCUGUGCUACACAUCGUAUGUACCGAAUCGGUUUUUGGUGGAAAGGAAAGUAUUAUGUUACGCCGUUCGGAUCUGCACUUCCA | -0.131
UAACUUUAGAGGAGGAUCUGAUGGAUAUGGCAGUGGACGUGGAUUUGGGCAUGGCUAUAAUGGGUAUGGAGGAGGACCUGGAGGUGGCAA | 0.114
UAACUUUAGAGGAGGAUCUGAUGGAUAUGGCAGUGGACGUGGAUUUGGGGGUGGCUAUAAUGGGUAUGGAGGAGGACCUGGAGGUGGCAA | 0.0617

Block 2
Target: RNA binding protein fox-1 homolog 2, RRM domain, GST-SBP tag (RBFOX2, Homo sapiens, UniProt O43251-10, residues 100-194)
Technique: RNA Bind-n-Seq
Form: RNA
Sample: in vitro
Tested at: 365 nM
Setting: natural RNA segment, single round, ends assumed
Baseline: no-protein control
Direction: higher = stronger binding
All sequences stand within: GGGAGUUCUACAGUCCGACGAUC … UGGAAUUCUCGGGUGCCAA
Sequence | RBNS enrichment (R)
GAGUAGGCUCCAAUCAGUCCUCAGCCUGCAGCCUGCUCCAUCCUCAGGGCAGGGACCAAGCGUGCACAUUCUUUCCAUUUCAUAGUUGAUACUUUUAUAUGUACUGCUGC | 0.505
GGCACACUGGGCUAGGGACGAGGAAGGAGCAGCCACAAGUGGUAGAACUGCCUUGGUGGACACCAGCCUCGCCCUGUCUUUAUUUCCUGAAUGGUUUGUGAACUUGCUCA | 0.414
UUAAUUUGCACGAAAACAAAAAUUCCAUAUCAAUGUGCCUUGCCCUGGAUAGCGAUUAUUUGUGGAAUUGUUGCACAUGCUCCUCUAUUGAAAGGGGUUUUUCCCUAGUC | 6.99
AGAAUAUGUGUCUUCACCUGAAUAUUUAAUCUUUAUAUUUACAAAAAAAUAAGUUCCACAAGAUGGACAAAAAUGGUCCAUGAUAUUUAGCUUAAAUUGUAACCUUUUGU | 0.999
UGUUUAGAUCCUACAGAUGACCUCUGCUACAAUAAGUACGAUGUGACUUAGUAACUGCAUAGCAGUUGGAAAGAACUGCCAACUUUUUUUUCUCAUUUUUGUUAGUAAGA | 0.689
CUUGCGUGCAGCGAGGAGGUCCUCCCUGACAUGCUCAGCAUCCCGCAGUGAUUCCUCUCAUAGCUCUGGGAUGGGGCUUGGUUAGGGUGUCGUGAUGGAAAUAAACCUGA | 0.444
CCGGCCUUACCUCGUCUUCAUCCGUGGUGAGCAGCCUUCGUCAGUCUAGUUGUGUUGAAGCCAAGUGCAGUUGUGGAUGUUGCUGGGGUAAUAAAGGCAAGCGGGCUCCA | 0.387
UAAGAACUCUGUAAUAGAAUGUCAUUGUGGAUGUUACCUUUUUCAGAUCCAAGCAUAUAAAAAGCCUGUAUAUUUUUUAAAAACACAUCUUAACUCCACGCUUUACGAUA | 1.37

Block 3
Target: CCNE1, cyclin fold, Cln2 fusion (human)
Technique: yeast growth competition, sequencing
Sample: yeast
Setting: strong parent motif
Baseline: not given
Direction: higher = stronger binding
Starting sequence: GMNC docking peptide (human); KNAKRNLSSEFAN
Substitution | normalised enrichment score
KNAKRPLSSEFAN [N6P] | 0.0711
KNAKRNLSSEFCN [A12C] | 1.45
KNGKRNLSSEFAN [A3G] | 0.494
KHAKRNLSSEFAN [N2H] | 0.986
KNAKRNLSSEHAN [F11H] | -0.209
KSAKRNLSSEFAN [N2S] | 1.63
KNAKRNLSSEMAN [F11M] | 0.584
KNAKRVLSSEFAN [N6V] | 0.303
KNAKRNLYSEFAN [S8Y] | 1.44
KNEKRNLSSEFAN [A3E] | 0.0505
KNAKRNLSSEFLN [A12L] | 0.927
KNAKRELSSEFAN [N6E] | 0.359
KNAKRNLSSEFPN [A12P] | 0.281
KNAKRNLASEFAN [S8A] | 1.55
KNAKRNLSSEFTN [A12T] | 1.49

Block 4
Target: ABI1, truncated, D143A, DHFR fusion (Arabidopsis thaliana)
Technique: DHFR PCA, deep sequencing
Sample: yeast
Setting: methotrexate growth selection, single substitutions
Together with: (+)-ABA 710 µM
Baseline: wild-type fitted maximum
Direction: higher = stronger binding
Starting sequence: PYL1, truncated, DHFR fusion (Arabidopsis thaliana); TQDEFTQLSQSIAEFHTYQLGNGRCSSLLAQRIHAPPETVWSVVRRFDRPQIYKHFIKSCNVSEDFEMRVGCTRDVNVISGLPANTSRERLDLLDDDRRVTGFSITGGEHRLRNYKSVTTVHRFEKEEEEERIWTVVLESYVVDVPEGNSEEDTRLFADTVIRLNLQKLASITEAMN; partner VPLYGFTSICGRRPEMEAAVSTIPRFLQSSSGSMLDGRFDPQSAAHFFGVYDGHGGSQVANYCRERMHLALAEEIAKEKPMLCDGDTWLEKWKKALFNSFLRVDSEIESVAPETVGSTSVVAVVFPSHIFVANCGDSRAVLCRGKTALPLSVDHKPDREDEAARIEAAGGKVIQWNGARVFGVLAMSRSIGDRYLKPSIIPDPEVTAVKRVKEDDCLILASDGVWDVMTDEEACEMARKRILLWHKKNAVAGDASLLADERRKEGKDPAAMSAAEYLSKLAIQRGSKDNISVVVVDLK
Substitution | relative binding score
E131Y | 101%
D144S | 86.5%
V118Q | 70.3%
F124M | 113%
N177S | 102%
D3N | 89.9%
T73G | 87.5%
E151M | 101%
R24V | 95.8%
V161G | -2.88%
S26N | 93.6%
V40W | -10.3%
R45D | 5.39%
S87E | 10.3%
V121T | 71.1%

For quick reference, copied from above (block 3):
Substitution | normalised enrichment score
KNGKRNLSSEFAN [A3G] | 0.494
KHAKRNLSSEFAN [N2H] | 0.986
KNAKRNLSSEHAN [F11H] | -0.209
KSAKRNLSSEFAN [N2S] | 1.63
KNAKRNLSSEMAN [F11M] | 0.584
